{"data": "Results from different studies", "F2": "Prothrombin (F2, Homo sapiens, UniProt P00734)", "prp N63Q": "Ribosomal processing cysteine protease Prp (prp, Staphylococcus aureus, UniProt Q2FXS9, N63Q)", "Faah": "Fatty-acid amide hydrolase 1 (Faah, Rattus norvegicus, UniProt P97612)", "ADRB2": "Beta-2 adrenergic receptor (ADRB2, Homo sapiens, UniProt P07550)", "note": "Values joined by “and” are separate records of one study, mostly repeats; a detail may differ. ± marks the error that the study gave.", "chain of UniProt P07550 (whole entry, looked up)": "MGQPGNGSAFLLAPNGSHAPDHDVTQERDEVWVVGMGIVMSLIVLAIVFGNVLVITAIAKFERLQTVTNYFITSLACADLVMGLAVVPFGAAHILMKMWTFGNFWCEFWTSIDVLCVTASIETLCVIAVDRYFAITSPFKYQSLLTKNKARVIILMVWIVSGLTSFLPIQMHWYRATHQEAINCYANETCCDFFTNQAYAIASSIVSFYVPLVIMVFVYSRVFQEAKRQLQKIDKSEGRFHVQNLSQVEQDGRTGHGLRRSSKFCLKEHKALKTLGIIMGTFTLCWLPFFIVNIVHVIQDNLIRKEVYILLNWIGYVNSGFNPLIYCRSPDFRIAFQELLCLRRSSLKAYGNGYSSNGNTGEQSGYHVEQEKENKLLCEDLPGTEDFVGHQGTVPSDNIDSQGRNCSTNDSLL", "chain of UniProt P97612 (whole entry, looked up)": "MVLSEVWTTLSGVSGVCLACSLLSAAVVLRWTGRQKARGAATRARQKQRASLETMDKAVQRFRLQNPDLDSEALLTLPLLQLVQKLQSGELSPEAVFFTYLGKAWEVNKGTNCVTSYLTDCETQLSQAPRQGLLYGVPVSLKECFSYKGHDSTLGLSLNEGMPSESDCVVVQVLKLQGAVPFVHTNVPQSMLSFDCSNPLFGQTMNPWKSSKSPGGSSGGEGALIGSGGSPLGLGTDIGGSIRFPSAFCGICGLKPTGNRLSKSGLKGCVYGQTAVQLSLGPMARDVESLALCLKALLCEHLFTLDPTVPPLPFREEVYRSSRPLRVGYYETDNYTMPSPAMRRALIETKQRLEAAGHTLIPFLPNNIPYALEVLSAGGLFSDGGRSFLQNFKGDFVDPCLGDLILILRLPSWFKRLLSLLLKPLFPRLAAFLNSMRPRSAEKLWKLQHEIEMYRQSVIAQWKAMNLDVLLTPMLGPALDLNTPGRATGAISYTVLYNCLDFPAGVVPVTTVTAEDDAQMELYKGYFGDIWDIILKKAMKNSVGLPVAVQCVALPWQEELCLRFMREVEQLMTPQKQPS", "chain of UniProt Q92499 (whole entry, looked up)": "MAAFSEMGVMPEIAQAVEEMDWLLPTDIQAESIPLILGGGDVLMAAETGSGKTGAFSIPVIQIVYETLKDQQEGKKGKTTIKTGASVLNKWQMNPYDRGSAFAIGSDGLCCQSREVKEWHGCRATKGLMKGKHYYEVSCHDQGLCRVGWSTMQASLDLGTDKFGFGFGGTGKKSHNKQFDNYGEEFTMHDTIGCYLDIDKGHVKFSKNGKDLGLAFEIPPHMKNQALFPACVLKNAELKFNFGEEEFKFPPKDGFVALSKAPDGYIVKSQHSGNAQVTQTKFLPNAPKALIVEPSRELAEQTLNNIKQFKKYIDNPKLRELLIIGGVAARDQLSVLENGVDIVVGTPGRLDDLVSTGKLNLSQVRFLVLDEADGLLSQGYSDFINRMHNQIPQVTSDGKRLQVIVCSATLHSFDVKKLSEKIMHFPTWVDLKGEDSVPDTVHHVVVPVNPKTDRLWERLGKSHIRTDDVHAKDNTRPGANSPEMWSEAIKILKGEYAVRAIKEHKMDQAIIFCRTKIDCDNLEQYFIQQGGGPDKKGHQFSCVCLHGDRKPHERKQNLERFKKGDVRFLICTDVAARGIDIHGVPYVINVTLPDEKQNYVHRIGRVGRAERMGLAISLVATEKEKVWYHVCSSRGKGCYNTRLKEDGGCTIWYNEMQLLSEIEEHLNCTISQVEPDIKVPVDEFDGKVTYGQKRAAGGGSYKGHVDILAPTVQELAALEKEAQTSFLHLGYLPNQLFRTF", "chain of UniProt Q13043 (whole entry, looked up)": "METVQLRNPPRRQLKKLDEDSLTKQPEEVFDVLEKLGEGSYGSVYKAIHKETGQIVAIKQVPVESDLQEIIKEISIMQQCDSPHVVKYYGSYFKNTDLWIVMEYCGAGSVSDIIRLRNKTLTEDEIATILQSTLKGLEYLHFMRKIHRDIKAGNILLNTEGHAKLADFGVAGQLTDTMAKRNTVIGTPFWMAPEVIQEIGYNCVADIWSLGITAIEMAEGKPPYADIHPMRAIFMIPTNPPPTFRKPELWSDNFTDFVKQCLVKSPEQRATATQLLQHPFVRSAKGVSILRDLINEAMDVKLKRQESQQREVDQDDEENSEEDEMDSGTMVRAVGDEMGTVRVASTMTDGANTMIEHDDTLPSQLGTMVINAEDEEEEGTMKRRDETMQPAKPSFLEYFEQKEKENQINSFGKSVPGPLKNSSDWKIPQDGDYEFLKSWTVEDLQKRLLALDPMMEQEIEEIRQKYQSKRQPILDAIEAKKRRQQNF", "chain of UniProt O60285 (whole entry, looked up)": "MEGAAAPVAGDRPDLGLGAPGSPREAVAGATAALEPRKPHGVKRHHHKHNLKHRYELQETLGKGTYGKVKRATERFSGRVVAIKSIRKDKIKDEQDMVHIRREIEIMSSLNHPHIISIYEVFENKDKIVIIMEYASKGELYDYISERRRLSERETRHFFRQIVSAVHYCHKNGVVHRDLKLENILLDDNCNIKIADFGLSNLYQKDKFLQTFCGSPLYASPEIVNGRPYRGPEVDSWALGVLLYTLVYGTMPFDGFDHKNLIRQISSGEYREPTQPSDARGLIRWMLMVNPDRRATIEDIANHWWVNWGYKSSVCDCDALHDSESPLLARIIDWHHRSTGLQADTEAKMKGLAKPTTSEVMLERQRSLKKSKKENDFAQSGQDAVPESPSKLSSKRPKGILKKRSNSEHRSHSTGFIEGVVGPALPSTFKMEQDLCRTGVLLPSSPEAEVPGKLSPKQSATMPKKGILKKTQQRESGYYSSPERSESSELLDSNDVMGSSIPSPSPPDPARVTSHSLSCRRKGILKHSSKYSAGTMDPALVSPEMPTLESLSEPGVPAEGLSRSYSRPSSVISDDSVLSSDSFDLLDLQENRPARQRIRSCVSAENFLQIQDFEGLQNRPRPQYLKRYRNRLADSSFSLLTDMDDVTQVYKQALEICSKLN", "chain of UniProt O75884 (whole entry, looked up)": "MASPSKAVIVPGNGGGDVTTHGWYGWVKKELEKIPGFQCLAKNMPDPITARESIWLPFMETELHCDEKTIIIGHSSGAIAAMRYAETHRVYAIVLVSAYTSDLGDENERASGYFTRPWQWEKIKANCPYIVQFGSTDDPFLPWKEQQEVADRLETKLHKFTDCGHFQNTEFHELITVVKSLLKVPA", "chain of UniProt O60741 (whole entry, looked up)": "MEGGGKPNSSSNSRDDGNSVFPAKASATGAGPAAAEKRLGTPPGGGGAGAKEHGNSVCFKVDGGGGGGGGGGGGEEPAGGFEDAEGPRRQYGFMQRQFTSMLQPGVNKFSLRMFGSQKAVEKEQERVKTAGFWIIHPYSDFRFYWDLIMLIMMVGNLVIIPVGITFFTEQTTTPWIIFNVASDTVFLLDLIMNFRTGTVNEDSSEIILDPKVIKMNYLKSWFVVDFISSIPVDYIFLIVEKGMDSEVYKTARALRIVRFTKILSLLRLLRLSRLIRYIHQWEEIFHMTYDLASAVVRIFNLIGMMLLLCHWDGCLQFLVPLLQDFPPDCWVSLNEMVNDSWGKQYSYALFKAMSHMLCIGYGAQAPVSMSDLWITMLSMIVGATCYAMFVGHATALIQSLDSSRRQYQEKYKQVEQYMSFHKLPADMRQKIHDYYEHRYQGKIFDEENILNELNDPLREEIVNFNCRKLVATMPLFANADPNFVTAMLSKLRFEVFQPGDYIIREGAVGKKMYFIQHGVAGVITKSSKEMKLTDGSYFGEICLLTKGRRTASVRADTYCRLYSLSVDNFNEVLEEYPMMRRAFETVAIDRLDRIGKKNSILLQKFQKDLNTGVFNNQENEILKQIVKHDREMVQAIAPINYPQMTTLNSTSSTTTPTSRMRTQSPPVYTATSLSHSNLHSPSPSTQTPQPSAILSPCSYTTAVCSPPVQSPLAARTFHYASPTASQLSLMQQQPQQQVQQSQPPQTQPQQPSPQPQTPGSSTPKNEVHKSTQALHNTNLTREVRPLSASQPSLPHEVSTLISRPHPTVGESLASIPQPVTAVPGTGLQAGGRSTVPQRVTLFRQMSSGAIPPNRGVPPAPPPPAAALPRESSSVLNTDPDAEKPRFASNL", "chain of UniProt P08913 (whole entry, looked up)": "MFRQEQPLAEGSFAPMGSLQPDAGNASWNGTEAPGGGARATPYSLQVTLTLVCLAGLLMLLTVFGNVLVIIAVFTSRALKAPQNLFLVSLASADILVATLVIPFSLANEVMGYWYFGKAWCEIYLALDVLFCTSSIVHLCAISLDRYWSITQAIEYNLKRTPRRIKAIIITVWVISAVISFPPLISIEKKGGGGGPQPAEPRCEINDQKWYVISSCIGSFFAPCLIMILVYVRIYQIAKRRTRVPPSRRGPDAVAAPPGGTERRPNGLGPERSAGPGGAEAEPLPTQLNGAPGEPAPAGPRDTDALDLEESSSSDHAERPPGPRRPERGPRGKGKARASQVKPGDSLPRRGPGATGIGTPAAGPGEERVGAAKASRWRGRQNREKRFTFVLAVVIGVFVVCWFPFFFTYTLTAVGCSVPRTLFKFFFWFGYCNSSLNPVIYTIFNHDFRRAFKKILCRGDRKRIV", "chain of UniProt P00811 (whole entry, looked up)": "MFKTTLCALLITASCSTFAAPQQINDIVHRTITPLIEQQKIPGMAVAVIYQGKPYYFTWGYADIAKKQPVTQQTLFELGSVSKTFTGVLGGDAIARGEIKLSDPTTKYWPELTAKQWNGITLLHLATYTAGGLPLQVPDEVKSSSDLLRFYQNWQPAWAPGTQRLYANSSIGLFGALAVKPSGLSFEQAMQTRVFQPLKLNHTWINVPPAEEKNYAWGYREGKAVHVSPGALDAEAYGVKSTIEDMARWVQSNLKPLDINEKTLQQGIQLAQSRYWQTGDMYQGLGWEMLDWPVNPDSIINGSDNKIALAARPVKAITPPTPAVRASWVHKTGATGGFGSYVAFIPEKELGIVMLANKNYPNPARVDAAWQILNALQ"}
{"SMILES": "N=C(N)Nc1ccc2c(c1)B(O)OC2", "target": "F2", "assay": "enzyme activity", "conditions": "50 µM, with: substrate 50 µM", "inhibition": "≤ 10%"}
{"SMILES": "CNC(=O)[C@@H](NC(=O)[C@H](CC(C)C)[C@H](O)C(=O)NO)C(C)(C)C", "target": "prp N63Q", "assay": "enzyme activity, inhibitor", "conditions": "10 µM, prp 21.4 nM, with: FITC peptide substrate 0.5 µM", "inhibition": "41.5 ± 11.9%"}
{"SMILES": "CN1CCN(c2cc(-c3ccncc3)c(-c3ccc4ccccc4c3)nn2)CC1", "target": "C-C chemokine receptor type 9 (CCR9, Homo sapiens, UniProt P51686)", "assay": "antagonist, FLIPR", "conditions": "10 µM", "inhibition": "6.1%"}
{"SMILES": "CCCC[C@@H](NC(=O)[C@@H](N)Cc1ccc(O)cc1)C(=O)NCC(=O)N[C@@H](Cc1ccc(F)cc1)C(=O)N(C)CCC[C@@]1(c2ccc(F)cc2)OCc2cc(C#N)ccc21", "target": "Alpha-2A adrenergic receptor (ADRA2A, Homo sapiens, UniProt P08913)", "conditions": "10 µM", "inhibition": "< 50%"}
{"SMILES": "O=C(Nc1cccnn1)N1CCC(=Cc2cccc(Oc3ccc(C(F)(F)F)cn3)c2)CC1", "target": "Faah", "assay": "probe labelling, inhibitor, competitive ABPP with azido-FP probe", "test system": "rat brain soluble fraction", "conditions": "0.1 µM", "inhibition": "99.7%"}
{"SMILES": "Cn1c(=O)cc(N2CCC[C@@H](N)C2)n(Cc2cc(F)ccc2C#N)c1=O", "target": "prp N63Q", "assay": "enzyme activity, inhibitor", "conditions": "10 µM, prp 21.4 nM, with: FITC peptide substrate 0.5 µM", "inhibition": "-11.4 ± 7.7%"}
{"SMILES": "C[C@H](C(=O)N[C@H]1COc2ccccc2[C@@H]1S(C)(=O)=O)c1ccc(F)cc1", "target": "Ca2+-ATPase, pig skeletal muscle", "assay": "enzyme activity", "conditions": "10 µM, Eurofins selectivity panel", "inhibition": "-3%"}
{"SMILES": "N#Cc1ccc(CNc2ccc3c(c2)B(O)OC3)cc1", "target": "F2", "assay": "enzyme activity", "conditions": "50 µM, with: substrate 50 µM", "inhibition": "≤ 10%"}
{"SMILES": "CC(=O)NC[C@H]1[C@H](O)[C@H](O)[C@@H]2[C@H](O)C[C@@H](CO)N21", "target": "β-N-acetylglucosaminidase", "assay": "enzyme activity, inhibitor, colorimetric", "test system": "Canavalia ensiformis", "conditions": "1.29 nM, with: p-nitrophenyl GlcNAc substrate", "inhibition": "65% and 68.9%"}
{"SMILES": "CN(C(=O)n1cnc(-c2ccc[n+]([O-])c2)c1)C1CCCCC1", "target": "Myotonin-protein kinase (DMPK, Homo sapiens, UniProt Q09013)", "assay": "kinase activity, inhibitor", "conditions": "10 µM, with: Axltide substrate", "inhibition": "5%"}
{"SMILES": "N[C@@H](CC(=O)N1CCn2c(nnc2C(F)(F)F)C1)Cc1cc(F)c(F)cc1F", "target": "prp N63Q", "assay": "enzyme activity, inhibitor", "conditions": "10 µM, prp 21.4 nM, with: FITC peptide substrate 0.5 µM", "inhibition": "6.7 ± 35.1%"}
{"SMILES": "CNCCCC12CCC(c3ccccc31)c1ccccc12", "target": "Potassium/sodium hyperpolarization-activated cyclic nucleotide-gated channel 1 (Homo sapiens, UniProt O60741)", "assay": "ion current", "conditions": "3 µM", "inhibition": "-2.49%"}
{"SMILES": "CC[C@H]1CN2CCc3cc(OC)c(OC)cc3[C@@H]2C[C@@H]1C[C@H]1NCCc2cc(OC)c(OC)cc21", "target": "Serine hydrolase RBBP9 (Homo sapiens, UniProt O75884)", "assay": "competitive ABPP", "conditions": "20 µM, Serine hydrolase RBBP9 400 nM, with: Pluronic F-127", "inhibition": "no effect"}
{"SMILES": "O=C(Nc1ccc2c(c1)B(O)OC2)c1ccc(N2CCOCC2)cc1", "target": "F2", "assay": "enzyme activity", "conditions": "50 µM, with: substrate 50 µM", "inhibition": "≤ 10%"}
{"SMILES": "O=C(CNC(=O)c1ccccc1)OC(C(=O)Nc1cc(C(F)(F)F)ccc1Cl)c1ccccc1 (stereo not shown)", "target": "Beta-lactamase (ampC, Escherichia coli K-12, UniProt P00811)", "assay": "enzyme activity, inhibitor", "conditions": "10 µM, with: CENTA substrate", "inhibition": "0%"}
{"SMILES": "COc1cc(Nc2ncc(F)c(Nc3ccc4c(n3)NC(=O)C(C)(C)O4)n2)cc(OC)c1OC", "target": "Tyrosine-protein kinase CSK (CSK, Homo sapiens, UniProt P41240)", "assay": "KINOMEscan", "conditions": "10 µM", "inhibition": "95%"}
{"SMILES": "O=C1C(=O)N(Cc2ccc(Cl)c(Cl)c2)c2ccccc21", "target": "prp N63Q", "assay": "enzyme activity", "conditions": "10 µM, 21.4 nM enzyme dimer, with: 0.5 µM FITC-labelled peptide substrate", "inhibition": "37.7 ± 7.7%"}
{"SMILES": "O=C(N1CCC2(CC1)C[C@H](CN1CCCCS1(=O)=O)CCO2)C1(c2ccccc2)CCCC1", "target": "ATP-dependent RNA helicase DDX1 (Homo sapiens, UniProt Q92499)", "assay": "ATPase activity", "conditions": "50 µM", "inhibition": "0%"}
{"SMILES": "O=c1ccc2ccccc2o1", "target": "ADRB2", "assay": "antagonist radioligand binding", "conditions": "10 µM, SafetyScreen44", "inhibition": "-1.17%"}
{"SMILES": "COc1cc(C(=O)c2c[nH]c3cc(-c4ccc(C)cc4)ccc23)cc(OC)c1OC", "target": "Tubulin alpha-1B chain/TUBB2B (Bos taurus, UniProt P81947+Q6B856)", "assay": "tubulin polymerization, turbidimetry", "conditions": "concentration not given", "inhibition": "inhibited"}
{"SMILES": "O=C(Nc1cnccc1Cl)N1CCN(Cc2ccc3c(c2)OC(F)(F)O3)CC1", "target": "Faah", "assay": "probe labelling, inhibitor, competitive ABPP with azido-FP probe", "test system": "rat brain soluble fraction", "conditions": "10 µM", "inhibition": "99.6%"}
{"SMILES": "COC([CH2][Hg+])CNC(=O)c1ccccc1OCC(=O)O.[OH-] (stereo not shown)", "target": "prp N63Q", "assay": "enzyme activity", "conditions": "10 µM, 21.4 nM enzyme dimer, with: 0.5 µM FITC-labelled peptide substrate", "inhibition": "104.5 ± 0.5%"}
{"SMILES": "O=C(NCc1ccc(B(O)O)cc1)c1cccc(OCc2ccccc2)c1", "target": "F2", "assay": "enzyme activity", "conditions": "50 µM, with: substrate 50 µM", "inhibition": "≤ 10%"}
{"SMILES": "CN(C)C(=O)COC(=O)Cc1ccc(OC(=O)c2ccc(NC(=N)N)cc2)cc1", "target": "prp N63Q", "assay": "enzyme activity, inhibitor", "conditions": "10 µM, prp 21.4 nM, with: FITC peptide substrate 0.5 µM", "inhibition": "-6 ± 8%"}
{"SMILES": "Cn1cccc1-c1cccnc1", "target": "ADRB2", "assay": "binding", "conditions": "50 µM", "inhibition": "3.26%"}
{"SMILES": "CC(C)N1CCC[C@H]1CNC(=O)c1cn(C2CCCC2)c(=O)c2c1c1ccccc1n2C", "target": "imidazoline I2 receptor, rat brain", "assay": "radioligand binding", "conditions": "10 µM", "inhibition": "15%"}
{"SMILES": "O=C(Nc1cccc(B(O)O)c1)c1cccc(OCc2ccccc2)c1", "target": "F2", "assay": "enzyme activity", "conditions": "50 µM, with: substrate 50 µM", "inhibition": "≤ 10%"}
{"SMILES": "N#C[C@@H]1CCCN1C(=O)CNC12CC3CC(CC(O)(C3)C1)C2", "target": "prp N63Q", "assay": "enzyme activity, inhibitor", "conditions": "10 µM, prp 21.4 nM, with: FITC peptide substrate 0.5 µM", "inhibition": "32.5 ± 13.1%"}
{"SMILES": "O=[N+]([O-])c1ccc2c(c1)B(O)OC2", "target": "F2", "assay": "enzyme activity", "conditions": "50 µM, with: substrate 50 µM", "inhibition": "≤ 10%"}
{"SMILES": "COc1ccc(N2C(=O)N(c3c(C)cccc3Cl)Cc3cnc(Nc4ccc(C5CCN(C)CC5)cc4OC)nc32)nc1", "target": "NUAK family SNF1-like kinase 1 (NUAK1, Homo sapiens, UniProt O60285)", "assay": "kinase activity, inhibitor", "conditions": "0.5 µM, ARK5", "inhibition": "-15%"}
{"SMILES": "Clc1cccc(-c2c[nH]c3ncnc(N4CCOCC4)c23)c1", "target": "Serine/threonine-protein kinase 4 (STK4, Homo sapiens, UniProt Q13043)", "assay": "kinase activity, inhibitor, PhosphoSens kinetic", "conditions": "concentration not given, 2 h, with: ATP at Km", "inhibition": "inhibited"}
{"SMILES": "CN(CCN1CCC(OC(=O)Nc2ccccc2-c2ccccc2)CC1)C(=O)c1ccc(CN2CCC(C(N)=O)CC2)cc1", "target": "rat 5-HT receptor non-selective", "assay": "radioligand binding", "conditions": "1 µM, with: [3H]serotonin 2.0 nM", "inhibition": "3%"}
{"SMILES": "C[C@@]1(c2cc(-c3cncnc3)c(F)cc2F)CCSC(N)=N1", "target": "prp N63Q", "assay": "enzyme activity, inhibitor", "conditions": "10 µM, prp 21.4 nM, with: FITC peptide substrate 0.5 µM", "inhibition": "17.3 ± 8.9%"}
{"SMILES": "COCc1c(-c2cc3cc(C)cc(OC)c3s2)c2c(N)ncnn2c1CN1CCNC(=O)C1", "target": "phosphodiesterase 4", "assay": "enzyme activity", "conditions": "10 µM", "inhibition": "-3%"}
{"note": "Excerpt of the above:"}
{"SMILES": "O=C(Nc1cccnn1)N1CCC(=Cc2cccc(Oc3ccc(C(F)(F)F)cn3)c2)CC1", "target": "Faah", "assay": "probe labelling, inhibitor, competitive ABPP with azido-FP probe", "test system": "rat brain soluble fraction", "conditions": "0.1 µM", "inhibition": "99.7%"}
{"SMILES": "Cn1c(=O)cc(N2CCC[C@@H](N)C2)n(Cc2cc(F)ccc2C#N)c1=O", "target": "prp N63Q", "assay": "enzyme activity, inhibitor", "conditions": "10 µM, prp 21.4 nM, with: FITC peptide substrate 0.5 µM", "inhibition": "-11.4 ± 7.7%"}
